Measured values gathered from unrelated publications.
A part holds a random share of what one study measured. Positions count from the first letter of the parent shown.

Sample 1
Target: ABI1, truncated, D143A, DHFR fusion (Arabidopsis thaliana)
Method: DHFR PCA, deep sequencing
Sample: yeast
Notes: methotrexate growth selection, single substitutions
Added: (+)-ABA 0.39 µM
Reference: wild-type fitted maximum
Direction: higher = stronger binding
Starting sequence: PYL1, truncated, DHFR fusion (Arabidopsis thaliana); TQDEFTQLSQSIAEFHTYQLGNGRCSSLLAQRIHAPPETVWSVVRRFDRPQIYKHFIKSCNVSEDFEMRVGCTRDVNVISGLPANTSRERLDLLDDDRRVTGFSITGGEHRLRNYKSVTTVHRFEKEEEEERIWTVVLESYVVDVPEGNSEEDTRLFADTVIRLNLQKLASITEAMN; partner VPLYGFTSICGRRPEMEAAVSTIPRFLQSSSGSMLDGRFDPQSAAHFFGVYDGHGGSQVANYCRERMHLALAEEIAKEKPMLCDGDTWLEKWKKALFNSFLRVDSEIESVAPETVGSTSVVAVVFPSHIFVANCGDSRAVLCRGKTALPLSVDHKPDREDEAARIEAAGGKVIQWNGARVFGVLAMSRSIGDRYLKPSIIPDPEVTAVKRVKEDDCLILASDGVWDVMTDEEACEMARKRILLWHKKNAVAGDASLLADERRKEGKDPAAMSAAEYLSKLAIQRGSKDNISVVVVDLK
Change	relative binding score [%]
S42G	35.9
V44Q	-5.2
E131N	65.9
D65K	23.2
R49M	36.1
E125A	55.2
R155C	5.66
S11E	62.7
T173K	-37.1
T119G	-11
Y141L	-4.56
N149C	52.9
S117Q	-0.316

Sample 2
Target: Histone acetyltransferase KAT6A, both winged helices, GST fusion (KAT6A, Homo sapiens, UniProt Q92794, residues 1-181)
Method: protein binding microarray
Molecule type: double-stranded DNA, one strand shown
Sample: in vitro
Concentration: not given
Notes: 8-mer, flanks averaged, mean of 2 arrays, mostly near background
Reference: not given
Direction: higher = stronger binding
Residues (chain): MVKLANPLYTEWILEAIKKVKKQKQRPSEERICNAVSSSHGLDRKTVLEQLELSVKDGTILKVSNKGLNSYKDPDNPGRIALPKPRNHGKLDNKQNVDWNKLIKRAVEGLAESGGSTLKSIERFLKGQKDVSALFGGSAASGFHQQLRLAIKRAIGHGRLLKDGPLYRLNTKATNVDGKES
Sequence	E-score
CACTAGGG	-0.141
GTACTATA	0.0619
GTAGTCCA	-0.15
CATTGTGA	-0.156
CAAGATGC	-0.14
CTGCCTAC	-0.107
CGGCCAGC	0.236
CCGAGAGA	-0.102
ACACATAC	-0.17
TGACACCA	-0.151
CGCGCGTA	0.404

Sample 3
Target: RNA binding protein fox-1 homolog 2, RRM domain, GST-SBP tag (RBFOX2, Homo sapiens, UniProt O43251-10, residues 100-194)
Method: RNA Bind-n-Seq
Molecule type: RNA
Sample: in vitro
Concentration: 365 nM
Notes: natural RNA segment, single round, ends assumed
Reference: no-protein control
Direction: higher = stronger binding
Constant ends, left off below: GGGAGUUCUACAGUCCGACGAUC … UGGAAUUCUCGGGUGCCAA
Residues (chain): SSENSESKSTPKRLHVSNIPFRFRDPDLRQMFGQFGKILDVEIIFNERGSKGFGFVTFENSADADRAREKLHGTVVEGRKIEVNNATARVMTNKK
Sequence	RBNS enrichment (R)
GUGCGACUCUGUGGUCCUGAGUGCCAGAAGCUGUCUCCAUGGGUUGGUCACAGUGUGCAUCGCACCGUGCUGUACAUGUGCAGACGCAGCCUGCAGCCAGGUUUUUAUUU	0.274
GUCAGGUUGGGGACCAACCUUGGGCUUAUCCACCCCCCAGUCUUCCCUCCCUCUCUUGCCAGCACAUCCCUUAGUCCCCUUGAGACAAGUGGACCUAAGUGGCCGAGAGA	0.639
GUGCUAUUGUUUUAAAAAAAUAAUUAAAAAACAGUUGGCGUUAAUAAAAAUGUCAAUGUGAAACUGAUGUCCUGAUUCACUUUAUUCUCUUUCUUUGAUAAGAAACUAAA	0.543
UCCUGUUUCUCUAACACUAACAUGGAUAACCUAAGGGAAGUGCCAGCCGCUGUUGGCAGGGUAUUAAACGUGCAUUUUUACUCAACUACCUCAGGUAUUCAGUAAUACAG	0.386
ACAACCUCUUCAAAGUACCCUUGGAAAUUGAAGUUCAAUCUUAAGUUUUUUGCUGUCUUUAAUUUACUAGAAUUGCCUAAUUUUUAGUUGAUUUCUCUACAGAGCUUAGC	0.334
UUGGGCCACACACCUCUUCUGGGCCUUACUUUGCUCUGCUGUAAGGUGUGGGCAUUUAAGAGGUACCAGAGGGAAAGGAGCCUCCGAAGGACUCGCAGGGGCAGUCGCAG	0.283
UAACAGUGUAGGUAUUGGAACCCUUGUAGCCCUUUUGGGGGUCAAACAGGUAUAUGGAUUUAUCAAGGAGGGCAUUGGCUGCCCCUGGGGUAUUGCCACGCUGUUGUCUU	0.373
AGGAAACACCACAGGCUGAACGGGGGAGGAAUGCACAUGCCACGCUGGGUGUCCCGGGUCGCGGGGAGGCAGCUCAGCUCUUAGGAGCAAGUUGUGGGGGCUUUUCAAGA	5.23

Further values, each from its own experiment
Molecule	target	test	test system	scale	quantity	result
VSAVQKLDFSDTM	human cyclin B3	cyclin docking binding, deep mutational scanning	peptide, yeast cyclin B3-Cln2 system	direction not given	Cln2-subtracted enrichment score	-0.299
